Experimental data gathered from unrelated publications.
Protocols differ between the studies behind these lines.
Cdca7: Cdca7 241-382 (Mus musculus, UniProt Q9D0M2)
UniProt Q9D0M2, sequence (whole entry, looked up): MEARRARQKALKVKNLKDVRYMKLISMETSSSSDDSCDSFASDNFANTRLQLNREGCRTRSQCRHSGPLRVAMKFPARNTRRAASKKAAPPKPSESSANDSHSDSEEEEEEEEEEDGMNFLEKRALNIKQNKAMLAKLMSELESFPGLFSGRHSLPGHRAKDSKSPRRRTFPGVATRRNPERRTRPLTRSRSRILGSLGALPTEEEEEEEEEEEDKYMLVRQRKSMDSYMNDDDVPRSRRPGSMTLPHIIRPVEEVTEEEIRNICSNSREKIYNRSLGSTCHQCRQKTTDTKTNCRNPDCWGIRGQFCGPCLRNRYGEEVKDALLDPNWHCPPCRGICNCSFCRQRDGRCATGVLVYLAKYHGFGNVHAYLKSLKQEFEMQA
Survival motor neuron protein: Survival motor neuron protein 1-294 (Homo sapiens, UniProt Q16637)
UniProt Q16637, sequence (whole entry, looked up): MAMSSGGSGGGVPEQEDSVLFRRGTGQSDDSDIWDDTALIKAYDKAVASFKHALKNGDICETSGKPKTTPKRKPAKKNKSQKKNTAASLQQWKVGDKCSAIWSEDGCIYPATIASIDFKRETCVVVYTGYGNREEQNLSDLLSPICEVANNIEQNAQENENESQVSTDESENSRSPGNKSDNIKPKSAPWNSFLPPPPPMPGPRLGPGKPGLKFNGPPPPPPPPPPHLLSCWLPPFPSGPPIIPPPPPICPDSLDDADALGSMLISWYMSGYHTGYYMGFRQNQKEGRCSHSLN
LYZ: LYZ 19-147 (Gallus gallus, UniProt P00698)
UniProt P00698, sequence (whole entry, looked up): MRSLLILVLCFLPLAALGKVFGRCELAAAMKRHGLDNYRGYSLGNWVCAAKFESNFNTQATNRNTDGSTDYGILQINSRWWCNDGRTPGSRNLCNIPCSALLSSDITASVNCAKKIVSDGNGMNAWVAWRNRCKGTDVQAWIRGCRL
T1: MBNL1 ZF3-4 duplicated; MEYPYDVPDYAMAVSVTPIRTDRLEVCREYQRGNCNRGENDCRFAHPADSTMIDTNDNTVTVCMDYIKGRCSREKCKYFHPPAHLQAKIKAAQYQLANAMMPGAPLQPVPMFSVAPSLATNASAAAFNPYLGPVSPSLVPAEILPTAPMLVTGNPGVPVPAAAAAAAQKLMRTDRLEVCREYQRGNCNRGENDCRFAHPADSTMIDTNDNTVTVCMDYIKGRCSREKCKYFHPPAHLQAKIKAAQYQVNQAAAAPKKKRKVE
UniProt P49821, sequence (whole entry, looked up): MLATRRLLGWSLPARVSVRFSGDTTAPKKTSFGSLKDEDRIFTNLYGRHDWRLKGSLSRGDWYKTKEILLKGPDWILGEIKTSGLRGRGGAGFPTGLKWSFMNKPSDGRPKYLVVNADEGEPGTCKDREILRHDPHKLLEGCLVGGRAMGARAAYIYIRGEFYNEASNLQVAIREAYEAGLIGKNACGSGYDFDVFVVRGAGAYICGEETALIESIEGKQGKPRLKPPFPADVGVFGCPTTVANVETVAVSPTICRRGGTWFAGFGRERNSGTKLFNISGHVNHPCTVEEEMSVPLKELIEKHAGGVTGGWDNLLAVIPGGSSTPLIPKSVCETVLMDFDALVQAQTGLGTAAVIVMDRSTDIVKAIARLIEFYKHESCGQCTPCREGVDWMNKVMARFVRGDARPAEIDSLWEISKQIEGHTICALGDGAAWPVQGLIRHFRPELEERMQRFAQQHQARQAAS
UniProt P16914, sequence (whole entry, looked up): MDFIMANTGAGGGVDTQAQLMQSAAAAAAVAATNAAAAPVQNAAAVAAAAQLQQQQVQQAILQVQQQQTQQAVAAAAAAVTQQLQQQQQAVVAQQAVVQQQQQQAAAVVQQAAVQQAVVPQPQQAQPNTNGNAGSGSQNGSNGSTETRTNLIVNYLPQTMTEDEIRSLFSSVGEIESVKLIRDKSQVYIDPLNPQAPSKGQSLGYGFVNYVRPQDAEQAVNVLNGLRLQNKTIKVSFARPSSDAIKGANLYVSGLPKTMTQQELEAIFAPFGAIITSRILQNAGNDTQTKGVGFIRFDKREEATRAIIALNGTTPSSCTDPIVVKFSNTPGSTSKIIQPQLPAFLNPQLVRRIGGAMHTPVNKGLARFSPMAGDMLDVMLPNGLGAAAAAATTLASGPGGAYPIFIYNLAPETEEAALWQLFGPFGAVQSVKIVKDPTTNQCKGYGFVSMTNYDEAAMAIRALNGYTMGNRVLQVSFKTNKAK
UniProt O43248, sequence (whole entry, looked up): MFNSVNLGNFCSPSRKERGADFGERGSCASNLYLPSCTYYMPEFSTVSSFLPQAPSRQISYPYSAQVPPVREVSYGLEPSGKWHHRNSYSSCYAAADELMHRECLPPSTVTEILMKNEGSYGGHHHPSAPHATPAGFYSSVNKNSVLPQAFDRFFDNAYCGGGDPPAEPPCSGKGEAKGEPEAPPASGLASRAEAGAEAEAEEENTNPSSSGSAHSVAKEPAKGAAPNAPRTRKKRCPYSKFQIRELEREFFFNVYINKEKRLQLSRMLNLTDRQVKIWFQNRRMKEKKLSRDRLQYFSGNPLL
UniProt P19525, sequence (whole entry, unmodified, looked up): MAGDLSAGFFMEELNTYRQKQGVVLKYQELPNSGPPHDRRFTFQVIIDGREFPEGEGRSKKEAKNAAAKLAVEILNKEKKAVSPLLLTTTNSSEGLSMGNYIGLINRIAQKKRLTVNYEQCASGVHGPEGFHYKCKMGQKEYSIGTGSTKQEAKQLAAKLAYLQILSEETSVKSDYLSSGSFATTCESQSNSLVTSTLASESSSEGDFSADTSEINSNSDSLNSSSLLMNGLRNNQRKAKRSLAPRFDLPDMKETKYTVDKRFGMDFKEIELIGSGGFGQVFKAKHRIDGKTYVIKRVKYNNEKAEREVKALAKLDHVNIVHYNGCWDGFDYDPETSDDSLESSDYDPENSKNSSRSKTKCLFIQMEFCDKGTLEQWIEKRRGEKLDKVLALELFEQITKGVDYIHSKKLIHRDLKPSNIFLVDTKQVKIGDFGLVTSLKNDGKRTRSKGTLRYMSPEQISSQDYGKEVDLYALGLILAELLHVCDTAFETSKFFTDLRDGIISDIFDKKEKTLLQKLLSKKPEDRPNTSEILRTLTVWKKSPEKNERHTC
UniProt P00441, sequence (whole entry, looked up): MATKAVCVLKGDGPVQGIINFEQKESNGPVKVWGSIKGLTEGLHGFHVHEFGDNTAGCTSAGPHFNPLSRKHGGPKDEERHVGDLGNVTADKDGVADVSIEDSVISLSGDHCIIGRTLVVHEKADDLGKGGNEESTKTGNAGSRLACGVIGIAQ
UniProt Q8TEQ6, sequence (whole entry, looked up): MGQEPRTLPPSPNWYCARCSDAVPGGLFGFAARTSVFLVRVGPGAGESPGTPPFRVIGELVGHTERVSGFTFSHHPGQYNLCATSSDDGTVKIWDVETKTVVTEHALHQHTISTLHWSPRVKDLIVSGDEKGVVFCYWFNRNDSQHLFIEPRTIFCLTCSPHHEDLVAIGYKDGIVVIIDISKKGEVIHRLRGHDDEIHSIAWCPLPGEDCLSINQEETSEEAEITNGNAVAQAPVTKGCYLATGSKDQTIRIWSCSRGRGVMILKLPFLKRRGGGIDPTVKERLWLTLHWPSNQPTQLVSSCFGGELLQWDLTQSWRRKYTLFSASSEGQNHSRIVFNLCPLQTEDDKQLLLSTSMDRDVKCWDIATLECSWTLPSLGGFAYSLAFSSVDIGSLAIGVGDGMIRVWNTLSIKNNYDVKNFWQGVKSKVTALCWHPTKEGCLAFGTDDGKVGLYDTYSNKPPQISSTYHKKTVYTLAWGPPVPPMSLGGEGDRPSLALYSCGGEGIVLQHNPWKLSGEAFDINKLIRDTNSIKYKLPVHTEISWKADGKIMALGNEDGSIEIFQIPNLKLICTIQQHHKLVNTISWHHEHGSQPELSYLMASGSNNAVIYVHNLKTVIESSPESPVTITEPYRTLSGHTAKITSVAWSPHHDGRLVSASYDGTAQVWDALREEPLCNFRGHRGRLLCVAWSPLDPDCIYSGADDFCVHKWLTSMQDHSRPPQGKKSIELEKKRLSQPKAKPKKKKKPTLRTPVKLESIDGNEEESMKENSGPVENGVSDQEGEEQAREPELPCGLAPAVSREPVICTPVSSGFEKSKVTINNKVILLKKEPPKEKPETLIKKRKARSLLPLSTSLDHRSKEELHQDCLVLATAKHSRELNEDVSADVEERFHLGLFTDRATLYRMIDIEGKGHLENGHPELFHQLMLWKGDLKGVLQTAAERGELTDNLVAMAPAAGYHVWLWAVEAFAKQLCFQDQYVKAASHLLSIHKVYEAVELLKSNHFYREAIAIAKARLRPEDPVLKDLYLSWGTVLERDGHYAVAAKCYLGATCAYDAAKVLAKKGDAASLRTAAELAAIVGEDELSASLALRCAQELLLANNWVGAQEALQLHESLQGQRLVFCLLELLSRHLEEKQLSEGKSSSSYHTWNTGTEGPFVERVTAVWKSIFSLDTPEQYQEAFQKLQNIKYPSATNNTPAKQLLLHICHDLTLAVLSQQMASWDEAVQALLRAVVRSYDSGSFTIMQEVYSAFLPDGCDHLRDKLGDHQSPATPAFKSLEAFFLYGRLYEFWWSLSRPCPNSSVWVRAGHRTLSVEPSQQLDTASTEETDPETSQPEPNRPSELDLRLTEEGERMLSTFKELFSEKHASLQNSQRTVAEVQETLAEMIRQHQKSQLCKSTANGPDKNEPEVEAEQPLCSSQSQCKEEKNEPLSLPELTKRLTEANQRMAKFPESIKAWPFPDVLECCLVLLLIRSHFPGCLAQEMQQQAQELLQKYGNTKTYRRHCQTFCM
UniProt Q01130, sequence (whole entry, looked up): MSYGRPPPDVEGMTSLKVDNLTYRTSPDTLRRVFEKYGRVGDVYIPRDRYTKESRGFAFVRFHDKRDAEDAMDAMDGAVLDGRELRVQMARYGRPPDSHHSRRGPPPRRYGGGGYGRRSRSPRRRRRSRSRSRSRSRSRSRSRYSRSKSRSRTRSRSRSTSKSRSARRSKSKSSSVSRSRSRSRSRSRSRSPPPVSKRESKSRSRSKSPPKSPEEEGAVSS

Oligonucleotide | target | method | molecule type | sample | tested at | setting | binding
GTGTCTCTGGTTTTATGACCATTTTGACCAG (dsDNA) | HOXC11 1-304 (Homo sapiens, UniProt O43248) | EMSA | double-stranded DNA, one strand shown |  |  |  | binds
RNA 1 GGAGGAUGUUAAUUGGCGUG / RNA 2 CACGCCAAUUAACAUCCUCC (dsRNA) | EIF2AK2 1-185 F131W (Homo sapiens, UniProt P19525) | tryptophan fluorescence anisotropy | double-stranded RNA |  |  |  | binds
GAAACGGGACGGCACCUCUUUUAACCCUUGAAGUCACUGCCCGUUUCGAGAGUUUCUCAACUCGAAUAACUAAAGCCAACGUGAACUUUUGCGGAUCUCCAGGAUCCGCUUUUUUUU (structured RNA) | hfq full length assumed Y25W (Escherichia coli, UniProt P0A6X3) | tryptophan fluorescence quenching | folded RNA |  |  |  | binds
GCGACGCCCTGTCGGTGAGACTAGT (ssDNA) | Cdca7 | EMSA | single-stranded DNA |  |  |  | no binding
GGGCUCACCACGCACGUGCGGGCUUGCUCGUGGGGUUGGCCCUCACCACGGCAAGCU (structured RNA) | Survival motor neuron protein | competition | folded RNA |  |  | almost no effect | binds
ACCCCUUGACAGUCUCUACGGAGACUGG (RNA; 3' stem-loop) | GEMIN5 1-739 (Homo sapiens, UniProt Q8TEQ6) | ITC | folded RNA |  |  |  | no binding
GGGAAUGGAUCCACAUCUACGAAUUCAUCAGGGCUAAAGAGUGCAGAGUUACUUAGUUCACUGCAGACUUGACGAA (structured RNA) | LYZ | filter binding | folded RNA |  |  |  | binds
GCAGCCCAUGAUGGCUGAAUCCUGAAAACCAGCCCGCUGGUGGGGGUCCAGCUUGAUGUCUUUGCAGC (structured RNA) | Sbp2 full length assumed (Drosophila melanogaster, UniProt Q9VSH1) | EMSA | folded RNA |  |  |  | no binding
RNA 1 GGAGGAUGUUAAUUGGCGUGUCUUGUCUGCAACGGUAUUC / RNA 2 GAAUACCGUUGCAGACAAGACACGCCAAUUAACAUCCUCC (dsRNA) | EIF2AK2 1-185 F131W/Q110A (Homo sapiens, UniProt P19525) | tryptophan fluorescence anisotropy | double-stranded RNA |  | 1 µM |  | binds
GUGGUCAGUCGAGUGG (ssRNA; unstructured) | hfq full length assumed S38W (Escherichia coli, UniProt P0A6X3) | tryptophan fluorescence quenching | RNA |  |  |  | binds
AAAAAAAAAAAA (dsDNA 12 bp duplex) | SOD1 2-154 (Homo sapiens, UniProt P00441) | EMSA | double-stranded DNA, one strand shown |  |  |  | no binding
GATGCCCTGTCGGTGAGACCGTTTCATCG (ssDNA) | Cdca7 | EMSA | single-stranded DNA |  |  |  | no binding
GGGAACCGGCCCUCACCACGGCAAGCU (ssRNA) | Survival motor neuron protein | competition | RNA |  |  | complete loss | no binding
AGGGGGCCGUGGGGUGGGAGCUGGGG (G-quadruplex RNA; G4) | NDUFV1 full length assumed (Homo sapiens, UniProt P49821) | EMSA | folded RNA |  | 100 nM |  | binds
GAAACGGGACGGCACCUCUUUUAACCCUUGAAGUCACUGCCCGUUUCGAGAGUUUCUCAACUCGUUUUUCUAUUGCCAACGUGAACUUUUGCGGAUCUCCAGGAUCCGCUUUUUUUU (structured RNA) | hfq full length assumed F42W (Escherichia coli, UniProt P0A6X3) | tryptophan fluorescence quenching | folded RNA |  |  |  | binds
GGGCUAAAGAGUGCAGAGUUACUUAGUUCACUGCAGACUUGACGAAGCUU (structured RNA) | LYZ | filter binding | folded RNA |  |  |  | no binding
AGGCGAGUAGGGUAUGCUG (ssRNA) | SRSF2 full length assumed (Homo sapiens, UniProt Q01130) | UV cross-linking | RNA | S100 | 400 nM |  | binds
DNA 1 GATGCCCTGTCGGTGAGACCGTTTCATCG / DNA 2 CGATGCCTGTCGGTGAGACCGTTTGCATC (DNA; annealed oligos) | Cdca7 | EMSA | folded DNA |  |  |  | binds
UGUGUAAGUGAGUACGGUCGCUGUGGUGUGAUGAUGGGUGUGG (ssRNA) | elav full length assumed (Drosophila melanogaster, UniProt P16914) | EMSA | RNA |  |  |  | no binding
CAACGCCCTGTCGGTGAGAAACCGTTTGCA (DNA; hairpin) | Cdca7 | EMSA | folded DNA |  |  |  | binds
GCUGCUGUUCGCUGCUG (ssRNA; hairpin) | T1, MBNL1 ZF3-4 duplicated | EMSA | folded RNA |  |  |  | binds
DNA 1 GCTGATCAACGCCCTGTCGGTGAGACTAGTACATG / DNA 2 CATGTACTAGTCGAACCGTTTGCGTTGATCAGC (DNA; annealed duplex) | Cdca7 | EMSA | folded DNA |  |  |  | binds
DNA 1 TGGCCAAAAAAGCATTGCTTATCAATTTGTTGCACC / DNA 2 TGGTGCAACAAATTGATAAGCAATGCTTTTTTGGCC (dsDNA) | IHF alpha/IHF beta (Escherichia coli) | CD thermal melting | double-stranded DNA |  |  | KCl 100 mM | binds

For quick reference, copied from above:
Oligonucleotide | target | method | molecule type | sample | tested at | setting | binding
GAAACGGGACGGCACCUCUUUUAACCCUUGAAGUCACUGCCCGUUUCGAGAGUUUCUCAACUCGAAUAACUAAAGCCAACGUGAACUUUUGCGGAUCUCCAGGAUCCGCUUUUUUUU (structured RNA) | hfq full length assumed Y25W (Escherichia coli, UniProt P0A6X3) | tryptophan fluorescence quenching | folded RNA |  |  |  | binds
GCGACGCCCTGTCGGTGAGACTAGT (ssDNA) | Cdca7 | EMSA | single-stranded DNA |  |  |  | no binding
